Measured values gathered from unrelated publications.
Numbered parts are unrelated; each lists some results of a single study. Substitutions count along the parent as printed.

Set 1
Substance: PhoQ, residues 284 288 289 292 302 303 TVTVVA
Method: Sort-seq
Refers to: YFP reporter
Matrix: E. coli
Setting: PhoQ-PhoP variant library
With: 10 µM Mg2+
Reference: high Mg2+ state
Reading: higher = stronger signaling
| target | fold induction |
| --- | --- |
| PhoP, residues 12 14 15 18 19 AYFRS (Escherichia coli, UniProt P23836) | 12.9 |
| PhoP, residues 12 14 15 18 19 SFCSL (Escherichia coli, UniProt P23836) | 17.4 |
| PhoP, residues 12 14 15 18 19 HHYTI (Escherichia coli, UniProt P23836) | 2.4 |

Set 2
Target: CCNF, cyclin fold, Cln2 fusion (human)
Method: yeast growth competition, sequencing
Matrix: yeast
Setting: strong parent motif
Reference: not given
Reading: higher = stronger binding
Parent: SLBP docking peptide (human); ARYKRKLLINDFG
| Change | normalised enrichment score |
| --- | --- |
| ARYKRKLQINDFG [L8Q] | 1.32 |
| ARYMRKLLINDFG [K4M] | 2.27 |
| ARVKRKLLINDFG [Y3V] | 5.65 |
| ARFKRKLLINDFG [Y3F] | 1.52 |
| ARYKTKLLINDFG [R5T] | 0.413 |
| ARYKRKLLINEFG [D11E] | 1.92 |
| ARYLRKLLINDFG [K4L] | 2.43 |
| ARYKRQLLINDFG [K6Q] | 1.49 |
| AAYKRKLLINDFG [R2A] | 1.25 |
| ARYKRKLLINDGG [F12G] | 1.52 |
| ARYKRKLLINDFS [G13S] | 1.29 |
| ARYKRALLINDFG [K6A] | 1.47 |
| ARYKRKLLINHFG [D11H] | 0.975 |
| ARQKRKLLINDFG [Y3Q] | 1.63 |
| ARYKRFLLINDFG [K6F] | 1.6 |
| ARYKRKLLINDKG [F12K] | 6.06 |
| ARYKRKLLILDFG [N10L] | 3.65 |
| ARYKRVLLINDFG [K6V] | 1.72 |
| ARYIRKLLINDFG [K4I] | 1.55 |
| MRYKRKLLINDFG [A1M] | 2.27 |
| ARYKRPLLINDFG [K6P] | -0.0258 |
| ARYKRKLLINDFV [G13V] | 3.29 |
| ARYKRKLLIYDFG [N10Y] | 2.97 |
| AQYKRKLLINDFG [R2Q] | 2.27 |

Set 3
Target: RNA binding protein fox-1 homolog 2, RRM domain, GST-SBP tag (RBFOX2, Homo sapiens, UniProt O43251-10, residues 100-194)
Method: RNA Bind-n-Seq
Form: RNA
Matrix: in vitro
Tested at: 365 nM
Setting: natural RNA segment, single round, ends assumed
Reference: no-protein control
Reading: higher = stronger binding
Residues (chain): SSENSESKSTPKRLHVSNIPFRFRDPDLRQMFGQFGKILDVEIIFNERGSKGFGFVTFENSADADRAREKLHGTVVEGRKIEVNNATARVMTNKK
| Oligonucleotide | RBNS enrichment (R) |
| --- | --- |
| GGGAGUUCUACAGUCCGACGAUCCAAAGGUUGGCAGAUAGAGGCUGUUCCCAGGCCAGUGAGCUUUACUUGCAGUGUAAAAGGAGGAAAGGGGUGGAAAAAACCGAAUUUCUGCAUUUAACUACAAAAAAAGUUGGAAUUCUCGGGUGCCAA | 0.353 |
| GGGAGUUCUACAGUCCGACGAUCGUAUCAAUUUGUUUGCAGUUAAUAUCAGCUUUGAUAGUCAUGUACCUUGACAUAGUGAAGGACACUAUAAUGUAUGAGUUGUUGUCAGUUUUUAUUUAUUUUUUGUUAGGUGGAAUUCUCGGGUGCCAA | 1.12 |
| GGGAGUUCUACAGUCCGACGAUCCAUCUCAGACUUCCUAACACAGCCUGUGUGGAAGGCAGAACAAAGAAUGCAUGCCCAGUCAGAAAUCUGUUCUAUUCUGCUCCAGGAAAAUCGGAAACCUGUGAGUCAGAUGGAAUUCUCGGGUGCCAA | 13.1 |
| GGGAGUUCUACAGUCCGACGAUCUGGCAGGCUGGUCCCCCUCCGUGAAAGUGUGGAUUCCUACUUCCUGCUCUAAGCUUUGACACGUCAAAAUGUGGGAUCAGAAAGAAAAAAAUCAUGAUAUUUAAAAAUGGUGGAAUUCUCGGGUGCCAA | 0.302 |
| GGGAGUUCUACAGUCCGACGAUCUGUUUUGACUUGAAUAAAGUACUACAUCAGUGUGGAAAAAAAUUCUGAUACAUUAGCAGCUAUGUAAAUGACCUAAUUGAUAGCAGGUGUAAUAAGACUAUCGUCUUCCUUGGAAUUCUCGGGUGCCAA | 0.317 |
| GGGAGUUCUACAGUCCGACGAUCCCCCUUCUCUCCUCCUCUGCCUCACUUCUUUAGUAAUCCCAACCCUAUAAAAAUGAACCUAAUGGGUGGAUUGAAUAUACAUUGAGCCCAAAGUCAAGUUUGGGGAAAAGUGGAAUUCUCGGGUGCCAA | 0.472 |
| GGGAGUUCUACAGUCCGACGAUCAUAUUUGCAAAUUGCCAUCUAUUGAAAUUCUCGUCACACUACAUAGACAUAAUUGUUAUCUCCUUUUGGCUUAUGUGAUUUUCUGUUUACAAGUAGAAUAGCCAAUUAUUUGGAAUUCUCGGGUGCCAA | 0.436 |
| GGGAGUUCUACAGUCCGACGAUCAAAGUAGACAUUUAUGUUCUAAUUAAUAUGAUUACAGAGAAGGCUUUUUCUCAGGUCAGGCUUUUCAUGAAAGUAUUUUGAGAACAAUGAAUUGCAAUAACCAGCUUCACUGGAAUUCUCGGGUGCCAA | 0.444 |
| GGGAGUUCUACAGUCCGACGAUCUAGUUCCUGUCACCUGCCCUCUGGUGUGUCCCUUGGCAAAUCUCUAUAGGAGGCCAAGUGUUAGCUAUCCAGGGCCCCUCCACUGCUGCAGCCAGUGUGCUCUUGAAUAAUGGAAUUCUCGGGUGCCAA | 0.329 |
| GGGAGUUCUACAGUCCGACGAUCGUUGCAAUAUAAAAGCCCUGGUGCACCUGAAUUUACUCCUGGCCUUACUAAUGAUUCAUAAUGUGAUCUUGAGAAAUGUGUUUAAGCUUUCUGAGUCUUAACCUCCUUGUUGGAAUUCUCGGGUGCCAA | 0.742 |
| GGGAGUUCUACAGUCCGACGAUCAAAAACAGAACCAGCAUACCCCCAGGACCCAGCUGUGCUGGGAGCCUCAGUGUCCUCACCUGUCAAGUGGGCAAGCCAUGCUGAUCCGCAGGGUAAGUUACUGGGAGUUUUGGAAUUCUCGGGUGCCAA | 0.31 |
| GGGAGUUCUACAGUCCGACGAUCUCAUGUCUGUCCCAUUCCUAUACCAUCCCCACCCUGUUGUAUGUAUUAUAGGAUUUGUAUUUUCUCCUUUUUUUUCCCCCUUCCAUUCCUUCUCCCCUCUUGCAUUCAAGUGGAAUUCUCGGGUGCCAA | 1.7 |

Set 4
Target: Histone acetyltransferase KAT6A, winged helix 1, GST fusion (KAT6A, Homo sapiens, UniProt Q92794, residues 1-85)
Method: protein binding microarray
Form: double-stranded DNA, one strand shown
Matrix: in vitro
Tested at: not given
Setting: 8-mer, flanks averaged, mean of 2 arrays, mostly near background
Reference: not given
Reading: higher = stronger binding
Construct (chain): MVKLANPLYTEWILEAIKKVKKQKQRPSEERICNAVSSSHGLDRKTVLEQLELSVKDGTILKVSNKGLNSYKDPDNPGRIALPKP
| Oligonucleotide | E-score |
| --- | --- |
| TAGGGTCA | -0.189 |
| CTAGCCTA | -0.0202 |
| CGATCTCC | -0.043 |
| CACCCGTG | 0.15 |
| AAGTTTTG | -0.137 |
| ACCGAAAT | -0.0272 |
| CAGTCAGA | -0.205 |
| ACTATGGG | -0.161 |
| ACCGACGA | 0.0406 |
| ATGCACCG | 0.0456 |
| AGGACCGA | 0.0854 |
| AAATTGCA | -0.23 |
| GAGCTCCA | -0.132 |
| CTCTCCGC | 0.123 |
| CATACATA | -0.18 |
| GGTTTATA | -0.00254 |
| GTCAATGA | -0.096 |
| AGTTGAGC | -0.123 |
| GCGCACGA | 0.261 |
| CCTTAGAA | -0.203 |
| ATGCGCGA | 0.359 |
| ACAAGGAG | -0.0709 |

For quick reference, copied from above (set 2):
| Change | normalised enrichment score |
| --- | --- |
| ARYKTKLLINDFG [R5T] | 0.413 |
| ARYKRKLLINEFG [D11E] | 1.92 |
| ARYLRKLLINDFG [K4L] | 2.43 |
| ARYKRQLLINDFG [K6Q] | 1.49 |
| AAYKRKLLINDFG [R2A] | 1.25 |
| ARYKRKLLINDGG [F12G] | 1.52 |
